# Measured values from different studies.
# Lines come from different studies, so protocols differ.
# BRD4 BD2: Bromodomain-containing protein 4, BD2 (BRD4, Homo sapiens, UniProt O60885)
# BRD4 BD1: Bromodomain-containing protein 4, BD1 (BRD4, Homo sapiens, UniProt O60885)
# TDP1: Tyrosyl-DNA phosphodiesterase 1 (TDP1, Homo sapiens, UniProt Q9NUW8)
# Sequence of UniProt Q9NUW8 (whole entry, looked up): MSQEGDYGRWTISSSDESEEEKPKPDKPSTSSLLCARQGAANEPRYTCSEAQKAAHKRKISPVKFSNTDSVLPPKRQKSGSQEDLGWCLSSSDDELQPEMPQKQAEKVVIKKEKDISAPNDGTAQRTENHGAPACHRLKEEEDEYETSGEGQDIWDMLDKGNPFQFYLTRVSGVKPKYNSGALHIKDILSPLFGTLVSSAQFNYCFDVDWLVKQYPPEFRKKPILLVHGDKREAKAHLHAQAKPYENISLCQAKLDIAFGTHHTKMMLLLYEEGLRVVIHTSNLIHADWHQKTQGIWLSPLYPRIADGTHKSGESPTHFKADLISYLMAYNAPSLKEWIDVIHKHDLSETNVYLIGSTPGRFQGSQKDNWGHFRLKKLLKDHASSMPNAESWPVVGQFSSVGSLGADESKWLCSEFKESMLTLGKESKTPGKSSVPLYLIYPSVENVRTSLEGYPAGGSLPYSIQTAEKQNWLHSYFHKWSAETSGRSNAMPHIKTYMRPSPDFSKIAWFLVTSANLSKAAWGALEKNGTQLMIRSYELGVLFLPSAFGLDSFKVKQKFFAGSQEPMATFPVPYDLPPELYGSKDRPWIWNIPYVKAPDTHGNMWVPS
Compound,target,assay,test system,conditions,quantity,result
Cn1cc(-c2cc(N3CCCCS3(=O)=O)ccc2N[C@H]2CC[C@H](C)CC2)c2cc[nH]c2c1=O (stereo in doubt),BRD4 BD2,"binding, competition with immobilised ligand",,1 µM,remaining binding,1.4%
Cc1sc2c(c1C)C(c1ccc(Cl)cc1)=N[C@@H](CC(=O)NCCN(C)CCCCNC(=O)CCCCOc1cccc3c1C(=O)N([C@H]1CCC(=O)NC1=O)C3=O)c1nnc(C)n1-2,"Bromodomain-containing protein 4, long isoform (BRD4, Homo sapiens, UniProt O60885)","degrader, Western blot, measured: BRD4 long isoform",MV4-11,,Dmax,89.5%
CC[C@H](C)[C@@H]1NC(=O)[C@H](Cc2ccc(O)cc2)NC(=O)[C@H](Cc2ccccc2)NC(=O)[C@H](C(C)C)NC(=O)[C@H](Cc2ccccc2)NC(=O)CSC[C@@H](C(=O)N[C@@H](Cc2c[nH]cn2)C(N)=O)NC(=O)[C@H](CC(N)=O)NC(=O)[C@H](Cc2c[nH]c3ccccc23)NC1=O,BRD4 BD1,"thermal stability, DSF",,100 µM,ΔTm,0.09 °C
COc1ccc(Br)cc1S(=O)(=O)Nc1cccc(N2CCCC2=O)c1,BRD4 BD1,"thermal stability, DSF",,,ΔTm,0.62 °C
Cc1cnc(Nc2ccc(OCCN3CCCC3)cc2)nc1Nc1cccc(S(=O)(=O)NC(C)(C)C)c1,BRD4 BD1,,,50 µM,inhibition,99.8%
O=C1CCCN1c1cccc(NS(=O)(=O)c2cc(Br)ccc2Br)c1,BRD4 BD1,"thermal stability, DSF",,,ΔTm,-0.91 °C
COc1cc(-c2cn(C)c(=O)c3cnccc23)cc(OC)c1CN(C)C,BRD4 BD2,,,,ΔTm,0.6 °C
CN(C(=O)[C@@H]1CSCC(=O)N[C@@H](Cc2ccccc2)C(=O)N[C@@H](CO)C(=O)N[C@@H](Cc2ccccc2)C(=O)N[C@@H](Cc2ccc(O)cc2)C(=O)N[C@@H](Cc2ccc(O)cc2)C(=O)N[C@@H](Cc2c[nH]cn2)C(=O)N[C@@H](Cc2c[nH]c3ccccc23)C(=O)N1)[C@@H](Cc1ccccc1)C(N)=O,BRD4 BD1,"thermal stability, DSF",,50 µM,ΔTm,-0.59 °C
CC(=O)N1c2ccc(-c3ccc(CNC(=O)c4cn5cc(-c6cnc(N)nc6)nc(N6CCOCC6)c5n4)cc3)cc2CC[C@@H]1C,BRD4 BD1,"binding, competition with immobilised ligand",,10 µM,remaining binding,0%
Cc1c(C=NOCc2ccc(-c3nc4cc(-c5ccccc5)ccn4c3Nc3ccc(C(=O)O)cc3)cc2)cnn1CCC(=O)O,TDP1,"enzyme activity, inhibitor",,"100 µM, unpurified compound",inhibition,64.5%
N=C(N)NCCC[C@@H]1NC(=O)[C@H](Cc2ccccc2)NC(=O)CSC[C@@H](C(=O)N[C@@H](CC(=O)O)C(N)=O)NC(=O)[C@H](CCCNC(=N)N)NC(=O)[C@H](Cc2c[nH]c3ccccc23)NC(=O)[C@H](Cc2ccc(O)cc2)NC(=O)[C@H](Cc2ccc(O)cc2)NC(=O)[C@H](Cc2ccccc2)NC1=O,BRD4 BD1,"thermal stability, DSF",,50 µM,ΔTm,-0.56 °C
CCn1cc(-c2cccc(C(F)(F)F)c2)c2sc(C(=N)NC3CCS(=O)(=O)CC3)cc2c1=O,BRD4 BD1,,,1 µM,inhibition,2.57%
O=C1CCCN1c1cccc(NS(=O)(=O)c2cccc(F)c2)c1,BRD4 BD1,"thermal stability, DSF",,,ΔTm,-0.12 °C
CC(C)C[C@@H]1NC(=O)[C@H](Cc2ccccc2)NC(=O)[C@H](CO)NC(=O)[C@H](Cc2ccccc2)NC(=O)CSC[C@@H](C(=O)N(C)[C@@H](Cc2ccccc2)C(N)=O)NC(=O)[C@H](Cc2c[nH]c3ccccc23)NC(=O)[C@H](Cc2c[nH]cn2)NC(=O)[C@H](Cc2ccc(O)cc2)NC1=O,BRD4 BD1,"thermal stability, DSF",,50 µM,ΔTm,0.22 °C
O=C(O)c1ccc(Nc2c(-c3ccccc3)nc3ccc(CON=Cc4cc([N+](=O)[O-])ccc4N4CCN(c5ccccc5)CC4)cn23)cc1 (mixture of isomers),TDP1,"enzyme activity, inhibitor",,"100 µM, unpurified compound",inhibition,2%
CCOc1ccc(C(C)=O)cc1NC(=O)c1cccc(C(=O)O)c1,BRD4 BD1,"thermal stability, DSF",,100 µM,ΔTm,0.4 °C
